Measurements pooled from the literature.
± gives the spread as reported.

| SMILES | test | test system | setting | tissue uptake [%ID/g] |
| --- | --- | --- | --- | --- |
| N=C(N)NCCC[C@@H]1NC(=O)[C@H](CCCCNC(=O)CCOCCOCCOCCOCCNC(=O)CC[C@H](NC(=O)CCOCCOCCOCCOCCNC(=O)c2ccc(NN)nc2)C(=O)NCCOCCOCCOCCOCCC(=O)NCCCC[C@@H]2NC(=O)[C@@H](Cc3ccccc3)NC(=O)[C@H](CC(=O)O)NC(=O)CNC(=O)[C@H](CCCNC(=N)N)NC2=O)NC(=O)[C@@H](Cc2ccccc2)NC(=O)[C@H](CC(=O)O)NC(=O)CNC1=O [technetium-99m labelled] |  | female athymic nude mice, U-87 MG glioma xenograft, intestine | intravenous, 2.5 µCi, 60 min | 5.25 ± 1.92 |
| N=C(N)NCCC[C@@H]1NC(=O)[C@H](CCCCNC(=O)CCOCCOCCOCCOCCNC(=O)CC[C@H](NC(=O)CCOCCOCCOCCOCCNC(=O)CC[C@H](NC(=O)CN2CCN(CC(=O)O)CCN(CC(=O)O)CCN(CC(=O)O)CC2)C(=O)NCCOCCOCCOCCOCCC(=O)N[C@@H](CCC(=O)NCCOCCOCCOCCOCCC(=O)NCCCC[C@@H]2NC(=O)[C@@H](Cc3ccccc3)NC(=O)[C@H](CC(=O)O)NC(=O)CNC(=O)[C@H](CCCNC(=N)N)NC2=O)C(=O)NCCOCCOCCOCCOCCC(=O)NCCCC[C@@H]2NC(=O)[C@@H](Cc3ccccc3)NC(=O)[C@H](CC(=O)O)NC(=O)CNC(=O)[C@H](CCCNC(=N)N)NC2=O)C(=O)NCCOCCOCCOCCOCCC(=O)NCCCC[C@@H]2NC(=O)[C@@H](Cc3ccccc3)NC(=O)[C@H](CC(=O)O)NC(=O)CNC(=O)[C@H](CCCNC(=N)N)NC2=O)NC(=O)[C@@H](Cc2ccccc2)NC(=O)[C@H](CC(=O)O)NC(=O)CNC1=O [indium-111 labelled] |  | athymic nude mice, female, U-87 MG glioma xenograft, spleen | intravenous, 3 µCi, 4 h | 2.07 ± 0.37 |
| CSCC[C@H](NC(=O)[C@H](CC(C)C)NC(=O)[C@H](Cc1c[nH]cn1)NC(=O)CNC(=O)[C@@H](NC(=O)[C@H](C)NC(=O)[C@H](Cc1c[nH]c2ccccc12)NC(=O)[C@H](CCC(N)=O)NC(=O)CCCCCCCNC(=O)CCC(=O)Nc1ccc(CNC23CNCCNCC(N)(CNCCNC2)CNCCNC3)cc1)C(C)C)C(N)=O [copper-64 labelled] |  | female SCID mice, PC-3 xenograft, tumour | intravenous, 0.6 MBq, 1 h | 13 ± 0.932 |
| CC(C)C[C@H](NC(=O)[C@H](Cc1ccc(O)cc1)NC(=O)[C@@H](CCCNC(=N)N)NC(=O)[C@@H](CO)NC(=O)[C@H](Cc1ccccc1)NC(=O)[C@H](CC1CCCCC1)NC(=O)[C@H](CC(=O)O)NC(=O)CCC(C(=O)O)N1CCCN2CCN(CCCN(CC(=O)O)CC2)CC1)C(=O)N[C@@H](Cc1c[nH]c2ccccc12)C(=O)N[C@@H](CO)C(=O)O (stereo partly shown) [copper-64 labelled] |  | female NMRI nude mice, muscle | 22 h p.i. | 0.1 ± 0.1 |
| N=C(N)NCCC[C@@H]1NC(=O)[C@H](CCCCNC(=O)CCOCCOCCOCCOCCNC(=O)CN2CCN(CC(=O)O)CCN(CC(=O)O)CCN(CC(=O)O)CC2)NC(=O)[C@@H](Cc2ccccc2)NC(=O)[C@H](CC(=O)O)NC(=O)CNC1=O [indium-111 labelled] |  | female athymic nude mice, liver | intravenous, 3 µCi, 24 h, U-87 MG glioma xenograft | 0.47 ± 0.07 |
| N=C(N)NCCC[C@@H]1NC(=O)[C@H](CCCCNC(=O)CNC(=O)CNC(=O)CNC(=O)CC[C@H](NC(=O)CNC(=O)CNC(=O)CNC(=O)[C@H](CCCCNC(=O)c2ccc(NN)nc2)NC(=O)c2ccc(NN)nc2)C(=O)NCC(=O)NCC(=O)NCC(=O)NCCCC[C@@H]2NC(=O)[C@@H](Cc3ccccc3)NC(=O)[C@H](CC(=O)O)NC(=O)CNC(=O)[C@H](CCCNC(=N)N)NC2=O)NC(=O)[C@@H](Cc2ccccc2)NC(=O)[C@H](CC(=O)O)NC(=O)CNC1=O [technetium-99m labelled] |  | female athymic nude mice, muscle | intravenous, 0.1 MBq, 1 h, U-87 MG glioma xenograft | 0.79 ± 0.15 |
| CSCC[C@H](NC(=O)[C@H](CC(=O)O)NC(=O)[C@H](CO)NC(=O)[C@H](Cc1c[nH]cn1)NC(=O)[C@H](Cc1c[nH]c2ccccc12)NC(=O)CN1CCN(CC(=O)O)CCN(CC(=O)O)CCN(CC(=O)O)CC1)C(=O)N[C@@H](CCC(=O)O)C(=O)N[C@@H](Cc1c[nH]c2ccccc12)C(=O)N[C@@H](Cc1c[nH]c2ccccc12)C(=O)N[C@@H](Cc1ccc(O)cc1)C(=O)N[C@@H](CC(C)C)C(=O)N[C@@H](CC(C)C)C(=O)NCC(=O)O [copper-64 labelled] | gamma counting | nude mice bearing HT-29 tumours, HT-29 tumour | intravenous, 0.74 MBq (0.02 nmol), 4 h | 3.55 |
| CSCC[C@H](NC(=O)[C@H](CC(C)C)NC(=O)[C@H](Cc1c[nH]cn1)NC(=O)CNC(=O)[C@@H](NC(=O)[C@H](C)NC(=O)[C@H](Cc1c[nH]c2ccccc12)NC(=O)[C@H](CCC(N)=O)NC(=O)[C@H](CC(N)=O)NC(=O)CNC(=O)[C@H](Cc1ccc(O)cc1)NC(=O)[C@H](CCCNC(=N)N)NC(=O)[C@H](CCC(N)=O)NC(=O)[C@@H]1CCCN1C(=O)CN1CCN(CC(=O)O)CCN(CC(=O)O)CCN(CC(=O)O)CC1)C(C)C)C(N)=O [indium-111 labelled] |  | male Swiss nu/nu mice, PC-3 tumour, kidney | intravenous, 10 pmol, 1 h | 7.9 ± 1.9 |
| N=C(N)NCCC[C@@H]1NC(=O)[C@H](CCCCNC(=O)CC[C@H](NC(=O)CCOCCOCCOCCOCCNC(=O)CN2CCN(CC(=O)O)CCN(CC(=O)O)CCN(CC(=O)O)CC2)C(=O)NCCCC[C@@H]2NC(=O)[C@@H](Cc3ccccc3)NC(=O)[C@H](CC(=O)O)NC(=O)CNC(=O)[C@H](CCCNC(=N)N)NC2=O)NC(=O)[C@@H](Cc2ccccc2)NC(=O)[C@H](CC(=O)O)NC(=O)CNC1=O [indium-111 labelled] |  | female athymic nude mice, eyes | intravenous, 3 µCi, 24 h, U-87 MG glioma xenograft | 0.39 ± 0.12 |
| N=C(N)NCCC[C@@H]1NC(=O)[C@H](CC(=O)NC23CNCCNCC(N)(CNCCNC2)CNCCNC3)NC(=O)[C@@H](Cc2ccccc2)NC(=O)[C@H](CC(=O)O)NC(=O)CNC1=O [copper-64 labelled] |  | male nude tumour-bearing mice, kidney | iv, 10 µCi, 2 h | 3.78 ± 0.29 |
| N=C(N)NCCC[C@@H]1NC(=O)[C@H](CCCCNC(=O)CNC(=O)CNC(=O)CNC(=O)CC[C@H](NC(=O)CCOCCOCCOCCOCCNC(=O)CC[C@H](NC(=O)CN2CCN(CC(=O)O)CCN(CC(=O)O)CCN(CC(=O)O)CC2)C(=O)NCCOCCOCCOCCOCCC(=O)N[C@@H](CCC(=O)NCC(=O)NCC(=O)NCC(=O)NCCCC[C@@H]2NC(=O)[C@@H](Cc3ccccc3)NC(=O)[C@H](CC(=O)O)NC(=O)CNC(=O)[C@H](CCCNC(=N)N)NC2=O)C(=O)NCC(=O)NCC(=O)NCC(=O)NCCCC[C@@H]2NC(=O)[C@@H](Cc3ccccc3)NC(=O)[C@H](CC(=O)O)NC(=O)CNC(=O)[C@H](CCCNC(=N)N)NC2=O)C(=O)NCC(=O)NCC(=O)NCC(=O)NCCCC[C@@H]2NC(=O)[C@@H](Cc3ccccc3)NC(=O)[C@H](CC(=O)O)NC(=O)CNC(=O)[C@H](CCCNC(=N)N)NC2=O)NC(=O)[C@@H](Cc2ccccc2)NC(=O)[C@H](CC(=O)O)NC(=O)CNC1=O [indium-111 labelled] |  | female athymic nude mice, blood | intravenous, 3 µCi, 1 h, U-87 MG glioma xenograft | 0.13 |
| CC(C)[C@H](NC(=O)[C@H](C)N)C(=O)N[C@@H](CCCNC(=N)N)C(=O)N[C@H](C(=O)N[C@@H](CO)C(=O)N[C@@H](C)C(=O)N[C@@H](CC(=O)O)C(=O)NCCOCCOCCOCCOCCC(=O)N[C@@H](CCCCNC(=O)CN1CCN(CC(=O)O)CCN(CC(=O)O)CC1)C(=O)O)[C@@H](C)O [fluorine-18 labelled] | gamma counting | BALB/c nude mice, female, subcutaneous tumour, kidney | intravenous, 3.7 MBq, 2 h | 4.96 ± 0.2 |
| N=C(N)NCCC[C@@H]1NC(=O)[C@H](CCCCNC(=O)CCOCCOCCOCCOCCNC(=O)CC[C@H](NC(=O)[C@H](CCCCNC(=O)c2ccc(NN)nc2)NC(=O)c2ccc(NN)nc2)C(=O)NCCOCCOCCOCCOCCC(=O)NCCCC[C@@H]2NC(=O)[C@@H](Cc3ccccc3)NC(=O)[C@H](CC(=O)O)NC(=O)CNC(=O)[C@H](CCCNC(=N)N)NC2=O)NC(=O)[C@@H](Cc2ccccc2)NC(=O)[C@H](CC(=O)O)NC(=O)CNC1=O [technetium-99m labelled] |  | female athymic nude mice, muscle | intravenous, 0.1 MBq, 1 h, U-87 MG glioma xenograft | 1.1 ± 0.32 |

Repeated from above:
| SMILES | test | test system | setting | tissue uptake [%ID/g] |
| --- | --- | --- | --- | --- |
| N=C(N)NCCC[C@@H]1NC(=O)[C@H](CCCCNC(=O)CNC(=O)CNC(=O)CNC(=O)CC[C@H](NC(=O)CCOCCOCCOCCOCCNC(=O)CC[C@H](NC(=O)CN2CCN(CC(=O)O)CCN(CC(=O)O)CCN(CC(=O)O)CC2)C(=O)NCCOCCOCCOCCOCCC(=O)N[C@@H](CCC(=O)NCC(=O)NCC(=O)NCC(=O)NCCCC[C@@H]2NC(=O)[C@@H](Cc3ccccc3)NC(=O)[C@H](CC(=O)O)NC(=O)CNC(=O)[C@H](CCCNC(=N)N)NC2=O)C(=O)NCC(=O)NCC(=O)NCC(=O)NCCCC[C@@H]2NC(=O)[C@@H](Cc3ccccc3)NC(=O)[C@H](CC(=O)O)NC(=O)CNC(=O)[C@H](CCCNC(=N)N)NC2=O)C(=O)NCC(=O)NCC(=O)NCC(=O)NCCCC[C@@H]2NC(=O)[C@@H](Cc3ccccc3)NC(=O)[C@H](CC(=O)O)NC(=O)CNC(=O)[C@H](CCCNC(=N)N)NC2=O)NC(=O)[C@@H](Cc2ccccc2)NC(=O)[C@H](CC(=O)O)NC(=O)CNC1=O [indium-111 labelled] |  | female athymic nude mice, blood | intravenous, 3 µCi, 1 h, U-87 MG glioma xenograft | 0.13 |
